{"data": "Measurements collected from several papers", "partner": "itself", "B1": "TOP2 C180A/C731A/S16C (Saccharomyces cerevisiae, UniProt P06786); AlexaFluor 488/546 labels; sequence looked up; chain MSTEPVSASDKYQKICQLEHILKRPDTYIGSVETQEQLQWIYDEETDCMIEKNVTIVPGLFKIFDEILVNAADNKVRDPSMKRIDVNIHAEEHTIEVKNDGKGIPIEIHNKENIYIPEMIFGHLLTSSNYDDDEKKVTGGRNGYGAKLCNIFSTEFILETADLNVGQKYVQKWENNMSIAHPPKITSYKKGPSYTKVTFKPDLTRFGMKELDNDILGVMRRRVYDINGSVRDINVYLNGKSLKIRNFKNYVELYLKSLEKKRQLDNGEDGAAKSDIPTILYERINNRWEVAFAVSDISFQQISFVNSIATTMGGTHVNYITDQIVKKISEILKKKKKKSVKSFQIKNNMFIFINCLIENPAFTSQTKEQLTTRVKDFGSRCEIPLEYINKIMKTDLATRMFEIADANEENALKKSDGTRKSRITNYPKLEDANKAGTKEGYKCTLVLTEGDSALSLAVAGLAVVGRDYYGCYPLRGKMLNVREASADQILKNAEIQAIKKIMGLQHRKKYEDTKSLRYGHLMIMTDQDHDGSHIKGLIINFLESSFPGLLDIQGFLLEFITPIIKVSITKPTKNTIAFYNMPDYEKWREEESHKFTWKQKYYKGLGTSLAQEVREYFSNLDRHLKIFHSLQGNDKDYIDLAFSKKKADDRKEWLRQYEPGTVLDPTLKEIPISDFINKELILFSLADNIRSIPNVLDGFKPGQRKVLYGCFKKNLKSELKVAQLAPYVSEATAYHHGEQSLAQTIIGLAQNFVGSNNIYLLLPNGAFGTRATGGKDAAAARYIYTELNKLTRKIFHPADDPLYKYIQEDEKTVEPEWYLPILPMILVNGAEGIGTGWSTYIPPFNPLEIIKNIRHLMNDEELEQMHPWFRGWTGTIEEIEPLRYRMYGRIEQIGDNVLEITELPARTWTSTIKEYLLLGLSGNDKIKPWIKDMEEQHDDNIKFIITLSPEEMAKTRKIGFYERFKLISPISLMNMVAFDPHGKIKKYNSVNEILSEFYYVRLEYYQKRKDHMSERLQWEVEKYSFQVKFIKMIIEKELTVTNKPRNAIIQELENLGFPRFNKEGKPYYGSPNDEIAEQINDVKGATSDEEDEESSHEDTENVINGPEELYGTYEYLLGMRIWSLTKERYQKLLKQKQEKETELENLLKLSAKDIWNTDLKAFEVGYQEFLQRDAEARGGNVPNKGSKTKGKGKRKLVDDEDYDPSKKNKKSTARKGKKIKLEDKNFERILLEQKLVTKSKAPTKIKKEKTPSVSETKTEEEENAPSSTSSSSIFDIKKEDKDEGELSKISNKFKKISTIFDKMGSTSATSKENTPEQDDVATKKNQTTAKKTAVKPKLAKKPVRKQQKVVELSGESDLEILDSYTDREDSNKDEDDAIPQRSRRQRSSRAASVPKKSYVETLELSDDSFIEDDEEENQGSDVSFNEED", "B2": "SPOP G128S (Homo sapiens, UniProt O43791); sequence looked up; chain MSRVPSPPPPAEMSSGPVAESWCYTQIKVVKFSYMWTINNFSFCREEMGEVIKSSTFSSGANDKLKWCLRVNPKGLDEESKDYLSLYLLLVSCPKSEVRAKFKFSILNAKGEETKAMESQRAYRFVQSKDWGFKKFIRRDFLLDEANGLLPDDKLTLFCEVSVVQDSVNISGQNTMNMVKVPECRLADELGGLWENSRFTDCCLCVAGQEFQAHKAILAARSPVFSAMFEHEMEESKKNRVEINDVEPEVFKEMMCFIYTGKAPNLDKMADDLLAAADKYALERLKVMCEDALCSNLSVENAAEILILADLHSADQLKTQAVDFINYHASDVLETSGWKSMVVSHPHLVAEAYRSLASAQCPFLGPPRKRLKQS", "B3": "ADAR1 127-end 127-1226 W1022A (human, UniProt P55265); sequence looked up; chain SSHFQELSIYQDQEQRILKFLEELGEGKATTAHDLSGKLGTPKKEINRVLYSLAKKGKLQKEAGTPPLWKIAVSTQAWNQHSGVVRPDGHSQGAPNSDPSLEPEDRNSTSVSEDLLEPFIAVSAQAWNQHSGVVRPDSHSQGSPNSDPGLEPEDSNSTSALEDPLEFLDMAEIKEKICDYLFNVSDSSALNLAKNIGLTKARDINAVLIDMERQGDVYRQGTTPPIWHLTDKKRERMQIKRNTNSVPETAPAAIPETKRNAEFLTCNIPTSNASNNMVTTEKVENGQEPVIKLENRQEARPEPARLKPPVHYNGPSKAGYVDFENGQWATDDIPDDLNSIRAAPGEFRAIMEMPSFYSHGLPRCSPYKKLTECQLKNPISGLLEYAQFASQTCEFNMIEQSGPPHEPRFKFQVVINGREFPPAEAGSKKVAKQDAAMKAMTILLEEAKAKDSGKSEESSHYSTEKESEKTAESQTPTPSATSFFSGKSPVTTLLECMHKLGNSCEFRLLSKEGPAHEPKFQYCVAVGAQTFPSVSAPSKKVAKQMAAEEAMKALHGEATNSMASDNQPEGMISESLDNLESMMPNKVRKIGELVRYLNTNPVGGLLEYARSHGFAAEFKLVDQSGPPHEPKFVYQAKVGGRWFPAVCAHSKKQGKQEAADAALRVLIGENEKAERMGFTEVTPVTGASLRRTMLLLSRSPEAQPKTLPLTGSTFHDQIAMLSHRCFNTLTNSFQPSLLGRKILAAIIMKKDSEDMGVVVSLGTGNRCVKGDSLSLKGETVNDCHAEIISRRGFIRFLYSELMKYNSQTAKDSIFEPAKGGEKLQIKKTVSFHLYISTAPCGDGALFDKSCSDRAMESTESRHYPVFENPKQGKLRTKVENGEGTIPVESSDIVPTADGIRLGERLRTMSCSDKILRWNVLGLQGALLTHFLQPIYLKSVTLGYLFSQGHLTRAICCRVTRDGSAFEDGLRHPFIVNHPKVGRVSIYDSKRQSGKTKETSVNWCLADGYDLEILDGTRGTVDGPRNELSRVSKKNIFLLFKKLCSFRYRRDLLRLSYGEAKKAARDYETAKNYFKKGLKDMGYGNWISKPQEEKNFYLCPV", "B4": "NUT1 1-1132 (Saccharomyces cerevisiae, UniProt P53114); chain MEKESVYNLALKCAERQLTSMEFSNLYKEFFNEKFPSLIQEEEEDTTTTANINEVKKASDLVDTPSNNTAATADTTHLHEALDIVCSDFVKILNLEKPLILADYIVEVLLVNYNSDMIKCFLPKLNSVRNSLLLAHFFSKSCSFFAKLSDTLIIDQVRKDLGNVIVPNILSLDMNSMNKELIAIVSKLLQTTLKLSPSPILLTSAGCKNGSFTLLNQLSQTNKLLFKRVSQTFEAKLHFKDTKPFLNKDSTNEFVGSPSLTSPQYIPSPLSSTKPPGSVNSAAKYKDMKLLRYYKNIWLNNKIINWEISNPDFLSKYSAITSSIFQESFNSVQNLDQLLTDLIETSFTCFAQFVSNKQYHQANSNLTLLERKWVIFITKHLPLLILENSSRSPRVVTNALDNIDEKVVKAIRIYFTEKDDNKTNNEDLFDDYPSTSLDIRHDFIKGLIMLNLQPASVINNYLREDQMIDTSILPTRDDLFVRNLQGIQEVVHNTNSFIISSLDTLELESITESITHDSSNGLFQVLHNFESVAPTKQREIVKAFLSIFEDAIKELNYNRIAKICALLFFNFSHSLTTILSFSSPAALMKTLIKFVDLSRNGRNGSNGNDESSEYETINISLSFSWAILLIINLTQTYGISVVDVALKYPELSIKNSFIINFISNLPNVSDKYYLEESNVNDSDMLTKSHNTVQSWLCDLFVNGSITDQLIQNIETRQLANLIPFIVKQVLLSVEIGVLTDISSLIGGFEYFLQPLLLVGLIKTFYWLEQFLSCVKNDTISEDILQGIFNLLNTLFNPVTLNEDSKAFHTAVLRLNAIPLLKVLRKFRVQSQSNYGIYSSDAQGDPNLEPLIAKLVAVLNVSPVYDVDPRIINSENDYSRKQLGYGKFLILNENPINKIMTNQINSFWSLHSSTYYNLDYLFELIELVTPKSFLFDVLKTLEYKLATYGVPGSENKRGSLDSEHVFDYFFYFLVLYDVKTAEEASQLIEYMENDAKKSKGDVDIKGEDLHEKNDSAEVRQETQPKAEATQDDDFDMLFGENDTSTQAYEEEEENEDNDGNNRTNNVPMIKAEETPSKTNKISILKRHSFAVLLHERKLLNDLALENGEITKTENEKFISYHDKYLCMLKTCVF", "B5": "Pnma4 (Mus musculus, UniProt Q9ERH6); sequence looked up; chain MTLRLLEDWCRGMDMNPRKALLVAGIPPTCGVADIEEALQAGLAPLGEHRLLGRMFRRDENKNVALIGLTVETGSALVPKEIPAKGGVWRVIFKPPDTDSDFLCRLNEFLKGEGMTMGELTRVLGNRNDPLGLDPGIMIPEIRAPMLAQALNEALKPTLQYLRYKKLSVFSGRDPPGPGEEEFESWMFHTSQVMKTWQVSDVEKRRRLIESLRGPAFEIIRVLKINNPFITVAECLKTLETIFGIIDNPRALQVKYLTTYQKTDEKLSAYVLRLEPLLQKLVQKGAIEKEVVNQARLDQVIAGAVHKSVRRELGLPEGSPAPGLLQLLTLIKDKEAEEEEVLLQAELEGYCT", "B6": "Igf2 E-peptide 92-180 S95C (Mus musculus, UniProt P09535); sequence looked up; chain RDVCTSQAVLPDDFPRYPVGKFFQYDTWRQSAGRLRRGLPALLRARRGRMLAKELKEFREAKRHRPLIVLPPKDPAHGGASSEMSSNHQ", "B7": "protein 2478-3541 (Micromonospora chalcea, UniProt A0A1Z1MZ77); sequence looked up; chain HPLLGGAVELPDRGGHVYPARLGVRHHPWLGEHALLGAAILPGAAYAELALWAGRRDGAGRIEELTLDAPLVVADESAAQLRLVVGPADAEGRRQLTVHSRADGADADTAWTRHAQGTLVPADADAAWSGEPGAPWPPAGAEPVEVAGLYDRFADRGYQYGPSFRGVRAAWRAGDTVYAEVALPVPQPGSPRFGVHPALLDAAFQAMSLGAFFPEDGQVRMPFALRGVSSSGVGADRLRVTISPAGAEAVRIACVDERGNPVVVIDSLVARAVPVEALTPGTPGIPGAGDGALHHVAWTARPEPGVAAVQRWAVVGAADPGLAGGLDRAGGLCGAYPDLAALVAAVAEGAALPDVVAVPVPSGAPVGPDAVRATVLGALDLIRAWLAVEGRLGLARLAFVTTSAVAVGDGTEHVDPVSAALWGLVRSAQSEEPGRFVLVDLDADPASASALPAALAAREPQLAVRAGAVHVPRLVRHRPRPDGPLTPPAGAAWRLAAGGQGTLEGLALVPAPDAEAPLTPGQVRVAVRAAGVNFRDTLIALGMYPGTPVLGAEGAGVITEVAPDVAGFAPGDRVLGMWTGGLGPVAVADARMLARVPRGWSYAEAASVPAVFLTAHYALTRLAGIRPGQSLLVHAGAGGVGMATLQLARHLGVEVYATASRGKWDTLRGLGLDDAHIADSRSLDFAGRFLAATGGRGVDVVLNSLAGDFVDASLRLLPRGGHFLELGKADVRDPDRIAADHPGVGYRAFDLVEAGPELVGQLLGELMELFAAGVLSPLPLTVRDVRRAREAFRLISQARHVGKVVLTMPPAFGAYGTVLVTGGTGTLGGAVARHLVARHGVRHLVLAGRSGPAADGASALVDELTASGASVTVVACDAADRVALRRLLDGIPAAHPLTAVVHAAGVLDDATITALTAGQVDAVLRPKADAVVNLHELTRDRELSAFVLFSSAAALFGSPGQGNYSAANGFVDAFAQYRRAQGLHAVSLAWGLWADSSRMAGHLDQEGMRRRMARGGVLPLTTDQGLALFDAAQLVDEALQVPIRLNVGALRAAGKVPALLADLV", "B8": "STV1/VPH1 chimera 1-132 (Saccharomyces cerevisiae); sequence looked up; chain MNQEEAIFRSADMTYVQLYIPLEVIREVTFLLGKMSVFMVMDLNKDLTAFQRGYVNQLRRFDEVERMVGFLNEVVEKHAAETWKYILHIDDEGNDIAQPDMADLINTMEPLSLENVNDMVKEITDCESRARQMEDATDQIEVQKNDLEQYRFILQSGDEFFLKGDNTDSTSYMDEDMIDANGENIAAAIGASVNYVTGVIARDKVATLEQILWRVLRGNLFFKTVEIEQPVYDVKTREYKHKNAFIVFSHGDLIIKRIRKIAESLDANLYDVDSSNEGRSQQLAKVNKNLSDLYTVLKTTSTTLHTELLVIHDQLPVWSAMTKREKYVYTTLNKFQQESQGLIAEGWVPSTELIHLQDSLKDYIETLGSEYSTVFNVIL", "note": "Compare with care: the assays were run in different laboratories."}
{"Molecule": "NYSGYSSYGQSQSGY (TAF15 49-63 (Homo sapiens, UniProt Q92804); N-acetyl/C-amide; sequence looked up)", "assay": "negative-stain TEM", "test system": "peptide", "setting": "peptide", "binding": "binds"}
{"Molecule": "B1 (TOP2 C180A/C731A/S16C)", "assay": "FRET or BRET", "setting": "together with: ADP, ATP, ADPNP", "binding": "binds"}
{"Molecule": "B2 (SPOP G128S)", "assay": "negative-stain TEM", "binding": "binds"}
{"Molecule": "KBTBD2 S252D (Homo sapiens) (sequence not shown)", "assay": "cryo-EM", "binding": "binds"}
{"Molecule": "B3 (ADAR1 127-end 127-1226 W1022A)", "assay": "SEC", "binding": "binds"}
{"Molecule": "B4 (NUT1 1-1132)", "assay": "cryo-EM", "binding": "binds"}
{"Molecule": "B5 (Pnma4)", "assay": "size-exclusion chromatography, negative-stain TEM", "binding": "binds"}
{"Molecule": "B6 (Igf2 E-peptide 92-180 S95C)", "assay": "dynamic light scattering", "setting": "together with: ATP", "binding": "binds"}
{"Molecule": "B7 (protein 2478-3541)", "assay": "X-ray crystallography", "binding": "binds"}
{"Molecule": "B8 (STV1/VPH1 chimera 1-132)", "assay": "SEC", "binding": "binds"}
{"note": "For quick reference, copied from above:"}
{"Molecule": "B5 (Pnma4)", "assay": "size-exclusion chromatography, negative-stain TEM", "binding": "binds"}
{"Molecule": "B6 (Igf2 E-peptide 92-180 S95C)", "assay": "dynamic light scattering", "setting": "together with: ATP", "binding": "binds"}
